Results of several laboratories.
Parts stem from different laboratories: compare values within a part only.

Set 1
Target: RNA binding protein fox-1 homolog 2, RRM domain, GST-SBP tag (RBFOX2, Homo sapiens, UniProt O43251-10, residues 100-194)
Technique: RNA Bind-n-Seq
Form: RNA
Sample: in vitro
Tested at: 365 nM
Notes: natural RNA segment, single round, ends assumed
Baseline: no-protein control
Direction: higher = stronger binding
Constant ends, left off below: GGGAGUUCUACAGUCCGACGAUC … UGGAAUUCUCGGGUGCCAA
Construct (chain): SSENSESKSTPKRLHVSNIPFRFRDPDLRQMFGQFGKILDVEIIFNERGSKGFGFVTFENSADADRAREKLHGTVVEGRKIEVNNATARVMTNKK
Sequence	RBNS enrichment (R)
CCGCCUCCCGGGUUCAAGUGAUCGUCCUGCCUUAGGCUCCUGAGUAGCUGGGGAUUACAGGUGCCUACCAGCAUGCUCGGCUAAUUUUUUUGUAUUUUUAGUAGAGAAGG	0.873
UCAGGGUGUCAAGCUGUUUUCAUUUUUUAGGCAAAUAGAACAAAAGCCAUUUUGGUUCAUCCUGAUCACUUGAAUGAUAGACUCAAUGCCCUGUGCCUGGCAGGGAGCGC	0.306
AUGUCAGCUGAGCCUCCUGCCCUCCCCCAGGAACAUGCACGCUCACUCUGCUUCCUUGUGGGUGGCCUUUUUUUACCGAUCCCCUUUUUUAUUUUUUACAACCGGACCUC	14.6
UAGCCUCCUAUCUGCAAGCAGAGUAGUGCUCUGCUCUGGGGAGGGGUCAUUGGAAACCAUAAUGCAGAGUGGGCCCCCUACUCCAUUUCCCAGCAAAAGGCUCCAGCUGG	0.386
CUCUGCAAGAAGCUCAAGGAAGCUCAGGGAAAAUGGACGUAUUCAGAGAGUGUUUGUAGUUCAUGGUUUUUCCCUACCUGCCCGGUUCCUUUCCUGAGGACCCGGCAGAA	0.482
CAAGGCCAUACCUGCCUAGCCCUUUGGCUCCAUCCUGUGGAUGCCCACUCACCCCUCAGACUCCUGCUGCCCAUGCUGUGGCCGGACUUGUCAGCAGGGGGCCUGGUGGG	0.287
UUAUGGUCCCCAUACAGUGGUAUUUAACUUUUAAAGCAACUUUUAAGAAAACUCGACUUGUUUUUUGUUCAUUUUAAGUGUGUGGUACUAAAAAGACAUGUUAGACUUUU	0.362
AAUAUCUAGAAACACCACUUCCCUCCAACCUGCGACUUUUGUACAAAAUUCAGAGAAUCUGUAAAGAACCCCCCACCCCUCAAAAAAGCCUAAGCACUUGCUGUUGUUCU	0.908
UGUGUAGCCUACUGACAGCUUUGGUUAACCCACUGCACAUCACCCAGUCAUUUACCCAACUUACUCUAGAAAUGUCCACAGCUAAGGAAGGCUCCUGAGCCAGUCAGGCG	0.397
UGGUCCCCACUCAUGAGGACCUUAACUCCCUGACGAUCCAGUCACCCAGGACCUGAUGUCAGCAGCCUGAGGAUAACAACCCUGUCAGUGAAACGGAAUCUCCACCCCAG	0.228
AUACACAGAUGUUCUAUCUAGAACAUUUCCAUUGCAACAGCUAAGUUUGUGUUUCGUGGUUUUUUUAUGUUUUGUUUGUUUUUUGAAAAUGAGAGAAGAGUUGGAGAUAU	1.79
UGCAAGUCUUCAGGAUGGCACAAAACAAAGGUUAAUGCUUCUUGGGGCACAUUUCUUAGAGGGCUUGCUGAGUGUGUAAAUAUAAUCGACUUUUGUUUGUGUUACAUGAC	0.421

Set 2
Target: Histone acetyltransferase KAT6A, winged helix 1, GST fusion (KAT6A, Homo sapiens, UniProt Q92794, residues 1-85)
Technique: protein binding microarray
Form: double-stranded DNA, one strand shown
Sample: in vitro
Tested at: not given
Notes: 8-mer, flanks averaged, mean of 2 arrays, mostly near background
Baseline: not given
Direction: higher = stronger binding
Construct (chain): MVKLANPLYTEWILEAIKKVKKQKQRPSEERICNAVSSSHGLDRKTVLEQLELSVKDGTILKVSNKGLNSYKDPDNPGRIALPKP
Sequence	E-score
GGACATCA	0.0175
GACAACAA	-0.178
CGCCGAAA	0.25
CAATTTCC	0.0307
CTGCCCTA	-0.128
CAGTCCGG	0.158
AAAATTTA	-0.206
AAAATAAA	-0.166
GGAATTAC	0.0716
AATTCGTG	-0.227
ACAGCGTA	0.0891
GACTCGCC	0.119
TCACTGAA	-0.0588
CAGTGTCG	-0.0104
GTACTCTA	-0.0393
AATAGAAA	-0.0419

Set 3
Target: Fragile X messenger ribonucleoprotein 1, C-terminal low-complexity region (Fmr1, Mus musculus, UniProt P35922)
Technique: RNA Bind-n-Seq
Form: RNA
Sample: in vitro
Tested at: 200 nM
Notes: whole 134-nt RNA, ends assumed
Added: 150 mM LiCl
Baseline: input library
Direction: higher = stronger binding
Library: 7-deaza-guanosine replaces G
Constant ends, left off below: GGGAGUUCUACAGUCCGACGAUC … UGGAAUUCUCGGGUGUCAAGG
Sequence	log2 enrichment
AAGUCCUGUGCUACACAUCGUAUGUACCGAAUCGGGUUUGGGUUUUUGGGUUUGGGAAAGUAUUAUGUUACGCCGUUCGGAUCUGCACUU	-1.83
UUGAAAGAAUUUGCCAACUUUGACUUUGAUGUCUGGAGGAAAAAGUAUAUGCGUUGGAUGAAUCACAAAAAGUCUCGAGUGAUGGAUUUC	-3.66
GUCCUGUGCUACACAUCGUAUGUACCGAAUCGGGUUUUUGGGGUUUUUGGGGUUUUUGGAAAGUAUUAUGUUACGCCGUUCGGAUCUGCA	-0.795
AGUCCUGUGCUACACAUCGUAUGUACCGAAUCGGAAAAAGGGGAAAAAGGGAAAAAGGAAAGUAUUAUGUUACGCCGUUCGGAUCUGCAC	-0.849
UCCUGUGCUACACAUCGUAUGUACCGAAUCAAAUUUAAAUUUUUUUAAAUUUUUUUAAAAAAGUAUUAUGUUACGCCGUUCGGAUCUGCA	-2.56
AGUCCUGUGCUACACAUCGUAUGUACCGAAUCGGGUUUUGGGGUUUUGGGUUUUGGGAAAGUAUUAUGUUACGCCGUUCGGAUCUGCACU	-1.62
UAACUUUAGAGGAGGAACUGAUGGAUAUGGCAGUGGACGUGGAUUUGGGGAUGGCUAUAAUGGGUAUGGAGGAGGACCUGGAGGUGGCAA	0.213
CUCAAGUCCUGUGCUACACAUCGUAUGUACCGAAUCGGAGGGGAGGGGAGGGGAAAGUAUUAUGUUACGCCGUUCGGAUCUGCACUUCCA	0.148
CACAGACAACACGCACCCACACAGACACAGAGGGAAGGGGUUGGGAUGGGGACAGGGUGCACAGCAGGGCGGGGUAAAACCCCAGCCCCU	1.79
UGGGCAUUUUGGUGGAGACGAUGAGCACCAACGACACGAUCGUCAGUGGCACGCUGCCCCAGCGCAUGGCGUCCUGCCUGGAGGUGCUGG	-2.3
CUCAAGUCCUGUGCUACACAUCGUAUGUACCGAAUCGGGAAAGGAAAGGAAAGGAAAGUAUUAUGUUACGCCGUUCGGAUCUGCACUUCC	-0.758

Set 4
Target: RING finger protein unkempt homolog, zinc fingers 1-6, GST-SBP tag (UNK, Homo sapiens, UniProt Q9C0B0, residues 30-357)
Technique: RNA Bind-n-Seq
Form: RNA
Sample: in vitro
Tested at: not given
Notes: RNA with constant flanks, ends assumed
Baseline: input RNA pool
Direction: higher = stronger binding
Constant ends, left off below: GGGAGUUCUACAGUCCGACGAUC … CAACAGAGGAUUGAGCAUCA
Construct (chain): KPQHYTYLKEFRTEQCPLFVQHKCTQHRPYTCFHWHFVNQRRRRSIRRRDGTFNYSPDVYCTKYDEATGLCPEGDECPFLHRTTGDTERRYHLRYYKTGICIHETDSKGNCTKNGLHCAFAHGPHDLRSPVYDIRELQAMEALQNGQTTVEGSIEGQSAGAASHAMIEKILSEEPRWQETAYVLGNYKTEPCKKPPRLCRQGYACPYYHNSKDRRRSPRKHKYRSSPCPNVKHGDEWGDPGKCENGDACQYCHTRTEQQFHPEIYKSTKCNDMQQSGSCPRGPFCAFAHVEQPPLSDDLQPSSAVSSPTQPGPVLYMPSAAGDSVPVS
Sequence	bound/input enrichment [ratio]
GUCCCAGUCUCAGACGCGGCUAAAGCGCUGGGGUCUGAGAAGGAAAGCGACCACGGUGCUCCGGUGUCUUGAAGGAUCAGAGGUACCUAAGGUUCAACCUGUCGAGGAGGCAGUGGAUAU	0.157
CAAAUCCUAGAGAGCCUUUCCACGUCUCCUCUGGCCGAGCCCCCCCACUUUGUUGAACAUAUCCGAUCUACCUUGAUGUUUUUAAAAAAAUUCCCAUCUCCAGAGAAUAUACUCUUUCCU	1.05
GCUGCAAAUUCCUGUGUAGUGGCAGGCCCAAGGCCUUCCCAGGGGAACCAUAGGUGGUGGCCGGUGGGACAUGUGGCCACUUGUUUUGCUUUAAAUACCUCAGUCCUUAUUCUGACAGGA	0.133
CUGGCUUAGAUAAUAUGGCUACACACUUAAGUCAGCAUGAAACUCAUUCUUGCCGAGUUCCCGCCGAGCAAGUUUCUGUUUGUAUCCCAACUUCUGAACGUCUUUCUGAAAUAAAAACUG	0.51
GACAUUAAAAAUUUUCUGUAUGCCUGGUGUGGCAAAAGGAAGAUGACUCCAGCCUAUGAAAUCCGAGCAGUAGGAAACAAAAACAGACAGAAAUUCAUGUGUGAGGUUCGAGUAGAAGGG	0.602
UCGUGUCAGGGCAGGCUUCCUGUCUCAGCCUUCUGAGUAUUGGGAUUACAGUUGUCUGCCCCGCUGAUGUCCUGUCUUCUUUCAGCAGAGGCAUGUGCACCCAACAUGCACAUGAUUAAG	0.0971
AUCUUUUGGUUAUUCUAAGCCCUUUGCCAUCAAUGAUCAUAUCAAUUGGCAGUGACUUUGUACCGAGAAUUUAAGUAGAAAAGUUGCAGAUGUAUUGACUGUACCACAGACACAAUAUGU	0.125
UCCCCUUCUUUCUCUGCUGAUUUUGCACUUUUCUCUUUGCUCACCACCAAGUGUAAUCAACCGCAAAGCACUGACAGUUCAUAGCAGUAGUGAAAUCUGAAAUAACUAAGAAUUAAUCAG	0.276
GAGAGCCGCCUGUCUUGGUUAGAUGGCUCUGGAUUAGGAUUCUCACUGGAAUACCCCACCAUCCGUUUACAUGCAUUAUCCAGGGACCGAAGUGACUGUCUAGGAGAGCAUUUGUAUGUU	0.286
GAUUCUUAUAUCAAAGCAGAUGAUCCUUCCUCCUACAUGGAAGUUGUUCAGGCUGCCAAUACCCGUGGAAACUGGGAAGAACUGGUGAAGUACUUGCAGAUGGCCCGUAAGAAGGCUCGA	0.0735
ACACCUGCUUUAUAUAUGCUUUCUCCUUUCAGUCCUCUAAGAAGAAUAUCUAUUAAGAUUUCCGUACACUCCUUAUUCAGCAUGCUCAUCAUGUGCACUAUUCUGACAAACUGCAUAUUU	0.422

Set 5
Target: Prothrombin, mature alpha-thrombin (F2, Homo sapiens, UniProt P00734)
Technique: aptamer microarray, sandwich
Form: DNA with 2'F-ANA
Sample: in vitro
Tested at: 200 nM
Notes: whole 15-mer aptamer, many near background
Added: Cy3 exosite-II aptamer, 400 nM
Direction: higher = stronger binding
Sequence: GGTTGGTGTGGTTGG
Modification	mean fluorescence intensity [a.u.]
2'F-ANA at 1 3 4 5 6 7 9 10 11 12 15	54.7
2'F-ANA at 1 2 3 5 6 7 8 11 13 14 15	45.5
2'F-ANA at 1 2 3 6 7 8 9 10 13	65.1
2'F-ANA at 1 2 4 6 7 8 11 13 14	52.7
2'F-ANA at 1 3 6 10	81.9
2'F-ANA at 2 6 7 8 11 13	427
2'F-ANA at 2 3 4 7 8 10 11 12 13	284
2'F-ANA at 2 6 7 8 9 10 12 13 14	88.6
2'F-ANA at 2 3 6 7 9 10 12 15	352
2'F-ANA at 1 4 5 7 9 11 12 13 15	61.6
2'F-ANA at 1 2 5 6 9 10 12 13 14 15	58.8
2'F-ANA at 3 6 8 10 11 14 15	297
2'F-ANA at 3 7 11 14 15	648
2'F-ANA at 1 3 4 5 6 7 8 9 10 12 14 15	48.8
2'F-ANA at 1 3 4 6 7 9 11	137
2'F-ANA at 1 3 5 7 8 9	79.1

Repeated from above (set 2):
Sequence	E-score
CAATTTCC	0.0307
CTGCCCTA	-0.128
CAGTCCGG	0.158
AAAATTTA	-0.206
AAAATAAA	-0.166
GGAATTAC	0.0716
AATTCGTG	-0.227
ACAGCGTA	0.0891
GACTCGCC	0.119
TCACTGAA	-0.0588
